Measurements of several laboratories.
Every numbered part comes from another study and shows a few of its results, in no order. pEC50: −log10 of the molar value.
UniProt Q8TDR2, sequence (whole entry, looked up): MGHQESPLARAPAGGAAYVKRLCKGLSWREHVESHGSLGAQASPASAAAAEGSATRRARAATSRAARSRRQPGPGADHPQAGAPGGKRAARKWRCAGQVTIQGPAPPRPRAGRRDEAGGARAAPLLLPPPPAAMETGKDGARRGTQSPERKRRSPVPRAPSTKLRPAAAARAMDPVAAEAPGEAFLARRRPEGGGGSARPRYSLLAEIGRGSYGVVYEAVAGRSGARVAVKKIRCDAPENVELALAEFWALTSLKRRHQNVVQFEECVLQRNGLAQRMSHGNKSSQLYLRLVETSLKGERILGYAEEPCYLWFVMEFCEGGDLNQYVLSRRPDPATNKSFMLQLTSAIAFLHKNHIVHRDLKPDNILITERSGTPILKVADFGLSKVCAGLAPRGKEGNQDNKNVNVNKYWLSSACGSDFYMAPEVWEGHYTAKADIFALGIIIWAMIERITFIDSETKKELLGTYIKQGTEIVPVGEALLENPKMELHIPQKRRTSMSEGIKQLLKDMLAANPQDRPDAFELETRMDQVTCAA
UniProt Q00535, sequence (whole entry, looked up): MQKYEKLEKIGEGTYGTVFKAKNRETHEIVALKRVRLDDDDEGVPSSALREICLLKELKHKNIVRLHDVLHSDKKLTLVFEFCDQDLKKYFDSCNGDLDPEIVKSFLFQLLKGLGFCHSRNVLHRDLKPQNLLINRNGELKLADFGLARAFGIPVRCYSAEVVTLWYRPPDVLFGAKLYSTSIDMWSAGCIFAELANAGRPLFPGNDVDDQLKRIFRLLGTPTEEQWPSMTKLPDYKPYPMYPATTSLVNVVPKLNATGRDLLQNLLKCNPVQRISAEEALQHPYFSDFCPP
UniProt O00141, sequence (whole entry, looked up): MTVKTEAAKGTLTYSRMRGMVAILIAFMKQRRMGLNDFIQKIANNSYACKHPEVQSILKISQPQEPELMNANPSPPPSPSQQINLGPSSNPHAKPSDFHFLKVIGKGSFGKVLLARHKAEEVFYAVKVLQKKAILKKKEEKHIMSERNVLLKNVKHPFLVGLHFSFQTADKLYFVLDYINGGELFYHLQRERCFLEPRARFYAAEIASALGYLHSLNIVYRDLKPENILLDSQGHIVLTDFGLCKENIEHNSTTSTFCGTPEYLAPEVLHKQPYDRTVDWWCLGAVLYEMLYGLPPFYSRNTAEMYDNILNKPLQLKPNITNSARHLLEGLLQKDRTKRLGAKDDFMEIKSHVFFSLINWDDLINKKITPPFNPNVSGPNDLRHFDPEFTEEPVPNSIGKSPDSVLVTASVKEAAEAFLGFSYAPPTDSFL
UniProt Q13523, sequence (whole entry, looked up): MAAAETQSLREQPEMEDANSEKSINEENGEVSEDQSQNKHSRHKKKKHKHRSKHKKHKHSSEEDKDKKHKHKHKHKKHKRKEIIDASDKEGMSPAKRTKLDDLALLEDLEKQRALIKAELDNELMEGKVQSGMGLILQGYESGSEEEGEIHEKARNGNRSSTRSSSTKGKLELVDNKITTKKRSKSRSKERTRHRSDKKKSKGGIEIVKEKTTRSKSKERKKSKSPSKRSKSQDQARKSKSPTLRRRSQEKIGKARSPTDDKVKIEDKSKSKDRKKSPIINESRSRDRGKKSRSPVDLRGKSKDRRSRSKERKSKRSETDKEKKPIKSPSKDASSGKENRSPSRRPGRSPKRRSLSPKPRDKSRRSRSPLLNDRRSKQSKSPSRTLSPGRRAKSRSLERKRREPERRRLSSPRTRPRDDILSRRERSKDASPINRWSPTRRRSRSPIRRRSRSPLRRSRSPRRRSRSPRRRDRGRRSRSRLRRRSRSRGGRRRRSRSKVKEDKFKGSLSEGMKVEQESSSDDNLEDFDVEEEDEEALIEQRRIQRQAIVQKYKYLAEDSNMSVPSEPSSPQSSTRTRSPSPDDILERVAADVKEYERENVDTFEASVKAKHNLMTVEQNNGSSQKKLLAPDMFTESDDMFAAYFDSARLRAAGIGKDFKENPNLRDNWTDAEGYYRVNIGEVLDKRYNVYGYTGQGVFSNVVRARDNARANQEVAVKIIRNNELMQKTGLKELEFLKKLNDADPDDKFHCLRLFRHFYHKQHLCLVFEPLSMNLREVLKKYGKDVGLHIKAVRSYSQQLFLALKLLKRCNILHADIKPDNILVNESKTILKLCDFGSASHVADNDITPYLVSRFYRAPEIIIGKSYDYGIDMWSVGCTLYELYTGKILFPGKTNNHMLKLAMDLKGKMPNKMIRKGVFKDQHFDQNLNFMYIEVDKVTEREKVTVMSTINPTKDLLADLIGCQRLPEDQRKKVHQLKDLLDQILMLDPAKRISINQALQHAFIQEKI
UniProt O43683, sequence (whole entry, looked up): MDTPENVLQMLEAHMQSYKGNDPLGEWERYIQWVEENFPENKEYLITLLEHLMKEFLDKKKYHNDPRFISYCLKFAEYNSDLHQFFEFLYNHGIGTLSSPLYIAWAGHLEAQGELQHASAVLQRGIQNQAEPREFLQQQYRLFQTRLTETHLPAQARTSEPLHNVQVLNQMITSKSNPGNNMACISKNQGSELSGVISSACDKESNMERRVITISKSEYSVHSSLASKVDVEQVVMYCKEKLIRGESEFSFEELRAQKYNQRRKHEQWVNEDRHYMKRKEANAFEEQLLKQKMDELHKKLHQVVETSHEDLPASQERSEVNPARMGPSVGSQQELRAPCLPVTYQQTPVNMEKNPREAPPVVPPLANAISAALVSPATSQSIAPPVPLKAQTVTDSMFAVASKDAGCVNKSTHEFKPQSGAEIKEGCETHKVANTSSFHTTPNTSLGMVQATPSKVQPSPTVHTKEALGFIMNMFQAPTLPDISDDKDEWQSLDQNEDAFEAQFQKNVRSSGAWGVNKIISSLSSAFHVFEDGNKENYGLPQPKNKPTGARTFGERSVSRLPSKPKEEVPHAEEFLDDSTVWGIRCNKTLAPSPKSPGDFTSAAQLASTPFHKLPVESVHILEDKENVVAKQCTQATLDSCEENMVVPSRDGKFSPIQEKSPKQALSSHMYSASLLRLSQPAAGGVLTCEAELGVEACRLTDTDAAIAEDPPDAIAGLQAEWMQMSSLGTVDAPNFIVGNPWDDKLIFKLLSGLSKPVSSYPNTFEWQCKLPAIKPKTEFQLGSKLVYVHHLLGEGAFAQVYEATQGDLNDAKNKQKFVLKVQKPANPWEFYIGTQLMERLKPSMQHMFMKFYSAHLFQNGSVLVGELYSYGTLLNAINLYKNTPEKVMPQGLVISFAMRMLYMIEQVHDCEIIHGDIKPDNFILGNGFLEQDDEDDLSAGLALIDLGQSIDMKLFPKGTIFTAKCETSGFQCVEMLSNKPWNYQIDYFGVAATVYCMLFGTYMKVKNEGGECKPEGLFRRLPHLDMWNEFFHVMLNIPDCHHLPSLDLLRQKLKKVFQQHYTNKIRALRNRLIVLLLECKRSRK
UniProt P68400, sequence (whole entry, looked up): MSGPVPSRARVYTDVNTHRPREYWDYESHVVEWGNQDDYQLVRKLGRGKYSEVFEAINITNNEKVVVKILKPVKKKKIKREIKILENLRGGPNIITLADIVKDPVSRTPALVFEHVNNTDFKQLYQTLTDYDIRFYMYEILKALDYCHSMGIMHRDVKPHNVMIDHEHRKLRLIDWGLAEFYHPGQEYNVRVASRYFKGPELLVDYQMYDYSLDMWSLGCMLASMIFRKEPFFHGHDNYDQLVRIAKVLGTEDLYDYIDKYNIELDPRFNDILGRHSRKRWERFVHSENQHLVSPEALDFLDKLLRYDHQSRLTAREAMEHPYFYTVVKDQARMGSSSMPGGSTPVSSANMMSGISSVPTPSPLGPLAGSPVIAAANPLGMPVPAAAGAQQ

Block 1
Structure (SMILES): CO[C@H]1CC[C@H](CNc2ccc(S(=O)(=O)NC(=O)c3ccc(N4CCN(CC5=C(c6ccc(Cl)cc6)CC(C)(C)CC5)CC4)cc3Oc3cnc4[nH]ccc4c3)cc2[N+](=O)[O-])CC1
Effect on: cell-free assay
Technique: competition with immobilised ligand
Concentration: 1 µM
target | remaining binding [%]
FLT3 (Homo sapiens, UniProt P36888, R834Q) | 100
CHEK1 (Homo sapiens, UniProt O14757) | 90
CDK5 (Homo sapiens, UniProt Q00535) | 82
EPHB3 (Homo sapiens, UniProt P54753) | 94
ANKK1 (Homo sapiens, UniProt Q8NFD2) | 81
ACVR2B (Homo sapiens, UniProt Q13705) | 95
BUB1 (Homo sapiens, UniProt O43683) | 73
SGK1 (Homo sapiens, UniProt O00141) | 100
STK35 (Homo sapiens, UniProt Q8TDR2) | 93
EPHA2 (Homo sapiens, UniProt P29317) | 100
PI4KB (Homo sapiens, UniProt Q9UBF8) | 97
CSNK2A1 (Homo sapiens, UniProt P68400) | 89
PRPF4B (Homo sapiens, UniProt Q13523) | 100
PLK3 (Homo sapiens, UniProt Q9H4B4) | 100
CDC42BPA (Homo sapiens, UniProt Q5VT25) | 56

Block 2
Target: Beta-1 adrenergic receptor (ADRB1, Homo sapiens, UniProt P08588)
UniProt P08588, sequence (whole entry, looked up): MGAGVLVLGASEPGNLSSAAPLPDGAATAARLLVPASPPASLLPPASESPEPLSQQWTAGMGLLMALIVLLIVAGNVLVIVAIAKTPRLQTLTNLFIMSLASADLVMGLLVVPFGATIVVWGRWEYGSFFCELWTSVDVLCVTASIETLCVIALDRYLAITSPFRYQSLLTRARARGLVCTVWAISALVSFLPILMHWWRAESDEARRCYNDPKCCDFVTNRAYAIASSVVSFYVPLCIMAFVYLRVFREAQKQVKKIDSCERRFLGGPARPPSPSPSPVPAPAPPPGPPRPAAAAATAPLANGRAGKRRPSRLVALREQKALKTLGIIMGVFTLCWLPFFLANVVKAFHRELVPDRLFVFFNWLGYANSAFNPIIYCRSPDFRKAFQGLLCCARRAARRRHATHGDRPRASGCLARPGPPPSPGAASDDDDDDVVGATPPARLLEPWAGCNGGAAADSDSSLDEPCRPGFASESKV
Action: agonist
SMILES | pEC50
Nn1c(SCc2cc(=O)oc3cc(O)ccc23)nnc1-c1ccccc1Br | ≤ 4.00
Cc1ccccc1-c1n[nH]c2ncc(-c3ccsc3)nc12 | ≤ 4.00
O=C(NCC1CCN(CCc2ccccc2)C1)c1ccc2[nH]cnc2c1 (centres unmarked) | ≤ 4.00
Clc1cccc(-c2c[nH]c([C@@H]3COCCN3Cc3cnc4ccccc4c3)n2)c1 | ≤ 4.00
CC(C)(O)Cn1c(NC(=O)c2ccc(-c3cn[nH]c3)s2)nc2cc(N3CCOC3=O)ccc21 | ≤ 4.00
O=c1oc2ccccc2cc1-c1nc2c(s1)CCc1ccccc1-2 | ≤ 4.00
COc1cccc(F)c1-c1ncc2c(n1)OCCN(c1cccc(C(F)(F)F)c1)C2=O | ≤ 4.00

Block 3
Structure (SMILES): CC(C)n1cnc(-c2ccc(F)cc2)c1-c1ncc(C(=O)Nc2ccc(N3CCN(C)CC3)cc2)[nH]1
Technique: phase 2a clinical trial
Species: patients with idiopathic pulmonary fibrosis
test | conditions | patients with treatment-emergent adverse events [%]
item: protein urine present | 30 mg once daily, Grade 4 | 0
item: protein urine present | dose not given, Grade 5, all drug arms total | 0
item: interstitial lung disease | dose not given, Grade 2, all drug arms | 0
item: carbon dioxide decreased | 30 mg once daily, Grade 1 | 0
item: drug-induced liver injury | 60 mg once daily, Grade 2 | 0

Block 4
Target: Calcium/calmodulin-dependent protein kinase type II subunit alpha (CAMK2A, Homo sapiens, UniProt Q9UQM7)
UniProt Q9UQM7, sequence (whole entry, looked up): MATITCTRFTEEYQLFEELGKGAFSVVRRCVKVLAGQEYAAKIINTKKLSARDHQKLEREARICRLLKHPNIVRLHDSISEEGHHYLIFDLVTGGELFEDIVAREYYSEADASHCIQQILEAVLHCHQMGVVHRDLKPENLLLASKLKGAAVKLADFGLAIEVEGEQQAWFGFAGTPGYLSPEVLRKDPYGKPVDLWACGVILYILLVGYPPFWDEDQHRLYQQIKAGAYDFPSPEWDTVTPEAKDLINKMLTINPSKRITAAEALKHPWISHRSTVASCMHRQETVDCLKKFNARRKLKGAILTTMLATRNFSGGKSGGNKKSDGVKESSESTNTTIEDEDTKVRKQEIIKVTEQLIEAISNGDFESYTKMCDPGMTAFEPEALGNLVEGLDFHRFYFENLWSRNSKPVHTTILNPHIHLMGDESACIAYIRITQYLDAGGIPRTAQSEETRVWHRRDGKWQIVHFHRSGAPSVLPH
Effect on: enzyme activity
Action: inhibitor
Concentration: 10 µM
Compound | inhibition [%]
CCC/C=C\C=C\CCCCCCCCCO | 2
CC1(C)OC(=O)C=C[C@]2(C)[C@H]3CC[C@@]4(C)[C@H](c5ccoc5)OC(=O)[C@H]5O[C@]54[C@]3(C)C(=O)C[C@@H]12 | -2
CCCCCC(C)O (centres unmarked) | 22
CC(C)N(CCCCOCC(=O)NS(C)(=O)=O)c1cnc(-c2ccccc2)c(-c2ccccc2)n1 | -13
O=c1ccc2ccc(O[C@@H]3O[C@H](CO)[C@@H](O)[C@H](O)[C@H]3O)cc2o1 | 4

Repeated from above (block 4):
Compound | inhibition [%]
CCC/C=C\C=C\CCCCCCCCCO | 2
CC1(C)OC(=O)C=C[C@]2(C)[C@H]3CC[C@@]4(C)[C@H](c5ccoc5)OC(=O)[C@H]5O[C@]54[C@]3(C)C(=O)C[C@@H]12 | -2
CCCCCC(C)O (centres unmarked) | 22
CC(C)N(CCCCOCC(=O)NS(C)(=O)=O)c1cnc(-c2ccccc2)c(-c2ccccc2)n1 | -13
O=c1ccc2ccc(O[C@@H]3O[C@H](CO)[C@@H](O)[C@H](O)[C@H]3O)cc2o1 | 4
